Measured values of several laboratories.
Lines come from different studies, so protocols differ. ± gives the spread as reported.

Under “protection from contraction injury”, `CC(C)C[C@H]1NC(=O)[C@H](NC(=O)CN)CSSC[C@H]2NC(=O)[C@H]3CSSC[C@H](C(=O)N[C@H](CC(N)=O)C(=O)N[C@H](Cc4ccccc4)C(=O)N[C@H](CO)C(=O)N[C@H](Cc4ccccc4)C(N)=O)NC(=O)[C@@H](CC(C)C)NC(=O)[C@@H](CCCCN)NC(=O)[C@@H](Cc4ccccc4)NC(=O)[C@@H](CC(C)C)NC(=O)[C@@H](CCCCN)NC(=O)[C@@H](CO)NC(=O)[C@@H](CSSC[C@@H](NC(=O)[C@@H](CCCCN)NC(=O)[C@@H](Cc4c[nH]c5ccccc45)NC(=O)[C@@H](Cc4c[nH]c5ccccc45)NC(=O)[C@@H](Cc4ccccc4)NC(=O)[C@@H](CCC(=O)O)NC1=O)C(=O)N[C@H](CC(N)=O)C(=O)N1CCC[C@@H]1C(=O)N[C@H](CC(N)=O)C(=O)N[C@H](CC(=O)O)C(=O)N[C@H](CC(=O)O)C(=O)N[C@H](CCCCN)C(=O)N3)NC(=O)[C@@H](CCCCN)NC(=O)[C@@H](CC(C)C)NC(=O)[C@@H](CCCCN)NC(=O)[C@H]1CCCN1C(=O)[C@@H](CCCNC(=N)N)NC2=O` is recorded as ~43% (D2.mdx mouse; subcutaneous, 10 mg/kg, six weeks, 20 eccentric contractions).
`CC[C@H](C)[C@H](NC(=O)[C@H](Cc1c[nH]c2ccccc12)NC(=O)[C@H](CCCCN)NC(=O)[C@@H](NC(=O)[C@H](CC(C)C)NC(=O)[C@H](CC(=O)O)NC(=O)CNC(=O)[C@@H](NC(=O)[C@@H](NC(=O)[C@H](CO)NC(=O)[C@@H](NC(=O)[C@@H](NC(=O)[C@H](CC(=O)O)NC(=O)[C@H](CCC(N)=O)NC(=O)[C@H](C)NC(=O)[C@H](CCSC)NC=O)[C@@H](C)CC)[C@@H](C)CC)[C@@H](C)O)[C@@H](C)CC)C(C)C)C(=O)N[C@H](C(=O)N[C@@H](CC(=O)O)C(=O)N[C@H](C(=O)N[C@H](C(=O)N[C@@H](CC(N)=O)C(=O)N[C@@H](CCCCN)C(=O)N[C@@H](Cc1ccccc1)C(=O)N[C@H](C(=O)N[C@@H](CCCCN)C(=O)N[C@@H](CCCCN)C(=O)O)[C@@H](C)O)C(C)C)[C@@H](C)O)[C@@H](C)CC` gave a time constant of 2.2 s (carboxyfluorescein release, stopped-flow fluorescence; POPC vesicles 50 µM; up to 1 µM, pH 7.5, peptide/lipid 1:50).
`CCCCCCCC/C=C\CCCCCCCCOP(O)(O)=S.N` gave a survival increase of 33% (C57BL/6 mouse; subcutaneous, 1 mg/kg single, day 30, dosed 48 or 72 h after irradiation, added: 6.4 Gy total-body irradiation).
For `CC(C)C[C@@H]1NC(=O)[C@H](C(C)C)NC(=O)[C@H](CO)NC(=O)CNC(=O)CNC(=O)[C@H](CCCNC(=N)N)NC(=O)[C@@H]2CCCN2C(=O)[C@@H](NC(=O)CC[C@H](NC(=O)c2ccc(N(C)Cc3cnc4nc(N)nc(N)c4n3)cc2)C(=O)O)C(C)(C)SSC[C@@H](C(=O)O)NC(=O)CNC(=O)[C@H]([C@@H](C)O)NC(=O)[C@H](C(C)C)NC1=O`, the paw weight was 3.43 ± 0.121 g (rat adjuvant arthritis; iv, 0.2 mg/kg once daily day 0-14, day 14).
`CCN(Cc1ccccc1)C(=O)CCc1nc(CN2CCN(C(=O)Cc3ccc(OC)c(OC)c3)CC2)no1`: “time in central area” 30.9 ± 7.42 s (elevated plus maze; mouse, CCI neuropathic pain; 20 mg/kg).
`O=C(O)COc1c2c(c(OCC(=O)O)c3c1C1CC3c3cc4c(cc31)C1CC4c3ccccc31)C1CC2c2cc3c(cc21)C1CC3c2ccccc21`: “time to domain pinch-off” 15 to 30 min (confocal microscopy; DOPC/SM/cholesterol giant vesicles; 150 µM).
`CC[C@H](C)[C@H](NC(=O)[C@H](Cc1c[nH]c2ccccc12)NC(=O)[C@H](CCCNC(=N)N)NC(=O)[C@H](CCCCN)NC(=O)[C@H](CC(C)C)NC(=O)[C@H](CC(=O)O)NC(=O)[C@H](Cc1ccccc1)NC(=O)[C@H](C)NC(=O)[C@H](Cc1ccc(O)cc1)NC(=O)[C@H](CC(N)=O)NC(=O)[C@H](Cc1ccc(O)cc1)NC(=O)[C@H](CCCNC(=N)N)NC(=O)[C@H](Cc1ccc(O)cc1)NC(=O)[C@H](Cc1ccc(O)cc1)NC(=O)[C@@H](NC(=O)[C@H](CC(C)C)NC(=O)[C@H](C)NC(=O)[C@H](CC(N)=O)NC(=O)[C@H](Cc1ccc(O)cc1)NC(C)=O)[C@@H](C)CC)C(=O)N[C@@H](Cc1ccc(O)cc1)C(=O)N[C@@H](CC(C)C)C(N)=O` — result for “α4β7+ CCR9− cells”: 54.5% (item: HA-02 tetramer; antigen-experienced tetramer+ CD4 T cells, healthy adults, HLA-DRB1*0101; dose not given).
Under microgliosis, `CN(C)CCN(Cc1ccccc1)C(=O)c1cc(-c2ccc(F)cc2)n2nc(C(C)(C)C)cc2n1` is recorded as “decreased” (item: CD11b; Tg6799 mouse, cortex; dose not given, four months).
For `N=C(N)NCCC[C@H](NC(=O)[C@@H]1CCCN1C(=O)[C@@H]1CSSC[C@H](N)C(=O)N[C@@H](Cc2ccc(O)cc2)C(=O)N[C@@H](Cc2ccccc2)C(=O)N[C@@H](CCC(N)=O)C(=O)N[C@@H](CC(N)=O)C(=O)N1)C(=O)NCC(N)=O`, “peak mean arterial pressure change” read ~25 mmHg (male Sprague-Dawley rat, conscious; intra-arterial, 20 ng/kg; baseline: pre-injection baseline).
`Cc1cc2c(C(=O)Cc3ccccc3)c(O)c(O)cc2c(O)c1-c1c(C)cc2c(C(=O)Cc3ccccc3)c(O)c(O)cc2c1O` — result for “spleen weight reduction”: 80% (B6 Bcl-2 transgenic mouse; 60 µmol/kg; baseline: maximal spleen shrinkage).

A few entries again:
`CC[C@H](C)[C@H](NC(=O)[C@H](Cc1c[nH]c2ccccc12)NC(=O)[C@H](CCCNC(=N)N)NC(=O)[C@H](CCCCN)NC(=O)[C@H](CC(C)C)NC(=O)[C@H](CC(=O)O)NC(=O)[C@H](Cc1ccccc1)NC(=O)[C@H](C)NC(=O)[C@H](Cc1ccc(O)cc1)NC(=O)[C@H](CC(N)=O)NC(=O)[C@H](Cc1ccc(O)cc1)NC(=O)[C@H](CCCNC(=N)N)NC(=O)[C@H](Cc1ccc(O)cc1)NC(=O)[C@H](Cc1ccc(O)cc1)NC(=O)[C@@H](NC(=O)[C@H](CC(C)C)NC(=O)[C@H](C)NC(=O)[C@H](CC(N)=O)NC(=O)[C@H](Cc1ccc(O)cc1)NC(C)=O)[C@@H](C)CC)C(=O)N[C@@H](Cc1ccc(O)cc1)C(=O)N[C@@H](CC(C)C)C(N)=O` — result for “α4β7+ CCR9− cells”: 54.5% (item: HA-02 tetramer; antigen-experienced tetramer+ CD4 T cells, healthy adults, HLA-DRB1*0101; dose not given).
